{"data": "Experimental data of several laboratories", "note": "Parts stem from different laboratories: compare values within a part only.", "UniProt Q14164, sequence (whole entry, looked up)": "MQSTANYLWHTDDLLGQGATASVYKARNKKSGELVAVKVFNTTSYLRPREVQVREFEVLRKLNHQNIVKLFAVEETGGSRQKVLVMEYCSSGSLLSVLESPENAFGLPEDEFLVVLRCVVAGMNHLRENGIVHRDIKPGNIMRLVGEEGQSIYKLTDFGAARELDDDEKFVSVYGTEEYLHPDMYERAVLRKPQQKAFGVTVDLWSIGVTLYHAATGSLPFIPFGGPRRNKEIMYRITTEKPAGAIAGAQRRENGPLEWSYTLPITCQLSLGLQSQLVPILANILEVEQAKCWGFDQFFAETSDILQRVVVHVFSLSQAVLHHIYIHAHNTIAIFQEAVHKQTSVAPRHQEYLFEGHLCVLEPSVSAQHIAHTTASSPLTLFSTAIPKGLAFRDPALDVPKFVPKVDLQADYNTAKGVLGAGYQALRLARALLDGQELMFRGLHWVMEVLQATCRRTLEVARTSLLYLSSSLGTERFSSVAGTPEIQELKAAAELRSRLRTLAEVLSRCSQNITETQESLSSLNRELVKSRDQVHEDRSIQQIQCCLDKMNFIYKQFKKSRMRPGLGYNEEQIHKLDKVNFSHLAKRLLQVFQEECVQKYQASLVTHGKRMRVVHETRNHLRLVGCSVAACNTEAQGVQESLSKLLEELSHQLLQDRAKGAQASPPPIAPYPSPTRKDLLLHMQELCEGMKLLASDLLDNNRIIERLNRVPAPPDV", "UniProt P17948, sequence (whole entry, looked up)": "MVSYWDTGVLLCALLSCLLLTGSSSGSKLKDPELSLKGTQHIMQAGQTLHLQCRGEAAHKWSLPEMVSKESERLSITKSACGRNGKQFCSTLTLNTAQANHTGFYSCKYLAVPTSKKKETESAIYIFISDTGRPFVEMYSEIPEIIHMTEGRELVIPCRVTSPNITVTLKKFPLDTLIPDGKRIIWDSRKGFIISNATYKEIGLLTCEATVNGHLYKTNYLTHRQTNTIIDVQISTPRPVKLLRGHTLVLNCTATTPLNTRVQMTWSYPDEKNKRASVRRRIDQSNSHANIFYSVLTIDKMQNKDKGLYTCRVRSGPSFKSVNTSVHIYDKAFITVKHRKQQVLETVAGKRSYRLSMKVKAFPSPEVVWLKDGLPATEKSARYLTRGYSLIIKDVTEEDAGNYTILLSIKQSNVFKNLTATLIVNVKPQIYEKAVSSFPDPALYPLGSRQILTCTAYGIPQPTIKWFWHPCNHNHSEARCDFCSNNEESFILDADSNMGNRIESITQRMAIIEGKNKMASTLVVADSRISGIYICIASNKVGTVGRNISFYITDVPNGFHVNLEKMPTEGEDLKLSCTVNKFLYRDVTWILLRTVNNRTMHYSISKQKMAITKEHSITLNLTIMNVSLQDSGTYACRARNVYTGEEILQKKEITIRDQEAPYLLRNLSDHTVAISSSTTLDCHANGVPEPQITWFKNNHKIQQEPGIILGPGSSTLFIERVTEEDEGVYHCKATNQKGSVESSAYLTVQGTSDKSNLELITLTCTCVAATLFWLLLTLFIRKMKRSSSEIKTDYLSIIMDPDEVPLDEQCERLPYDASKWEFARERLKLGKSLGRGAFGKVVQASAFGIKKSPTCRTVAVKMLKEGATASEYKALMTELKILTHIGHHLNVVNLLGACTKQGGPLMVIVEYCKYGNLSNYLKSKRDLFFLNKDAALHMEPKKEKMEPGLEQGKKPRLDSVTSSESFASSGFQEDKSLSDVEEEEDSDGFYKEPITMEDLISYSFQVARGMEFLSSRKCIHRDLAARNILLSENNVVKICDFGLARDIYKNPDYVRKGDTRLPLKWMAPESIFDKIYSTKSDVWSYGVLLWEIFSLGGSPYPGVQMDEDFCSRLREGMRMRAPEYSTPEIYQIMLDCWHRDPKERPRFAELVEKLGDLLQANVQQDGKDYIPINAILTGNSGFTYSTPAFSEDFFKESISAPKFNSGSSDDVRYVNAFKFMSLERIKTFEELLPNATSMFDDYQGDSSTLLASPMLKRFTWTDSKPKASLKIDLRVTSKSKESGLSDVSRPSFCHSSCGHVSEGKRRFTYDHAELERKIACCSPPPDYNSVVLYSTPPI", "UniProt P0C1S8, sequence (whole entry, looked up)": "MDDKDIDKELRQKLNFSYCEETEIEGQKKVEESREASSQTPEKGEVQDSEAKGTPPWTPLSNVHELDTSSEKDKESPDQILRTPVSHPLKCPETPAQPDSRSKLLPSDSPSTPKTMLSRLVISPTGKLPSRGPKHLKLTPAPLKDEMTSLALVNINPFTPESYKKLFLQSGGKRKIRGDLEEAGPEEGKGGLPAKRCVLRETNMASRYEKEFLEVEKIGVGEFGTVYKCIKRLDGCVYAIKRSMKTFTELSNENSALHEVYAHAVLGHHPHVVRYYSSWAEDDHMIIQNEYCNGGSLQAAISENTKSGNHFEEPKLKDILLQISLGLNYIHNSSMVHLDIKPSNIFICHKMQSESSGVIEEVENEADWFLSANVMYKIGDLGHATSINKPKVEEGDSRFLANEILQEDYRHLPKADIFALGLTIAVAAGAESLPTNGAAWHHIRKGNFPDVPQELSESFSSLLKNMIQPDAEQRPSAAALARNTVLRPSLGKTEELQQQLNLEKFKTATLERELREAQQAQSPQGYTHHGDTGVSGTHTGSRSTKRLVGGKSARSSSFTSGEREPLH", "UniProt P51451, sequence (whole entry, looked up)": "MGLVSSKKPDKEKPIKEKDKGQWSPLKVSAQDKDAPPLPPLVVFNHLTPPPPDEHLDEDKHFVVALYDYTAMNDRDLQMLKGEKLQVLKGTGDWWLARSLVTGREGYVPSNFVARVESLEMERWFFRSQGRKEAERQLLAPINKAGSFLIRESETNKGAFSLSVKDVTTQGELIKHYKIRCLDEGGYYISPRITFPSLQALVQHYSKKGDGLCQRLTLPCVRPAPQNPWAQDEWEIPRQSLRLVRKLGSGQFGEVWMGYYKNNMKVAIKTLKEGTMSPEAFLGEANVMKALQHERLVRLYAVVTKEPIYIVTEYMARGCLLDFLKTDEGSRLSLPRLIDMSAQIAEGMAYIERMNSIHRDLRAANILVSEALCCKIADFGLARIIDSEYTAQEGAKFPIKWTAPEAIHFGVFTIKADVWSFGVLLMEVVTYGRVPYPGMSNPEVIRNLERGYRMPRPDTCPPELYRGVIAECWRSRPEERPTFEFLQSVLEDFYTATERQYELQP"}
{"data": "Sample 1", "SMILES": "CN(C)c1ncnc(-c2ccc3nc(Nc4cc(CN5CCN(C(=O)CC(F)(F)F)CC5)ccn4)[nH]c3c2)c1Cl", "tested at": "1 µM"}
{"target": "BLK (Homo sapiens, UniProt P51451)", "effect on": "cell-free assay", "technique": "competition with immobilised ligand", "remaining binding [%]": 82}
{"target": "FLT1 (Homo sapiens, UniProt P17948)", "effect on": "cell-free assay", "technique": "competition with immobilised ligand", "remaining binding [%]": 100}
{"target": "RET (Homo sapiens, UniProt P07949, M918T)", "effect on": "cell-free assay", "technique": "competition with immobilised ligand", "remaining binding [%]": 100}
{"target": "SIK1 (Homo sapiens, UniProt P57059)", "technique": "competition binding", "remaining binding [%]": 94}
{"target": "FLT3 (Homo sapiens, UniProt P36888, ITD)", "effect on": "cell-free assay", "technique": "competition with immobilised ligand", "remaining binding [%]": 86}
{"target": "IKBKE (Homo sapiens, UniProt Q14164)", "mode": "binder", "technique": "KINOMEscan competition binding", "reference": "DMSO", "remaining binding [%]": 13}
{"target": "ALK (Homo sapiens, UniProt Q9UM73, C1156Y)", "effect on": "cell-free assay", "technique": "competition with immobilised ligand", "remaining binding [%]": 59}
{"target": "WEE2 (Homo sapiens, UniProt P0C1S8)", "effect on": "cell-free assay", "technique": "competition with immobilised ligand", "remaining binding [%]": 100}
{"target": "CDK15 (Homo sapiens, UniProt Q96Q40)", "effect on": "cell-free assay", "technique": "competition with immobilised ligand", "remaining binding [%]": 100}
{"data": "Sample 2", "target": "Ras GTPase-activating protein-binding protein 1, full length (G3BP1, Homo sapiens, UniProt Q13283)", "technique": "RNA Bind-n-Seq", "form": "RNA", "matrix": "in vitro", "tested at": "200 nM", "notes": "whole 134-nt RNA, ends assumed", "added": "150 mM LiCl", "reference": "input library", "direction": "higher = stronger binding", "each molecule": "7-deaza-guanosine replaces G", "constant ends, left off below": "GGGAGUUCUACAGUCCGACGAUC … UGGAAUUCUCGGGUGUCAAGG", "UniProt Q13283, sequence (whole entry, looked up)": "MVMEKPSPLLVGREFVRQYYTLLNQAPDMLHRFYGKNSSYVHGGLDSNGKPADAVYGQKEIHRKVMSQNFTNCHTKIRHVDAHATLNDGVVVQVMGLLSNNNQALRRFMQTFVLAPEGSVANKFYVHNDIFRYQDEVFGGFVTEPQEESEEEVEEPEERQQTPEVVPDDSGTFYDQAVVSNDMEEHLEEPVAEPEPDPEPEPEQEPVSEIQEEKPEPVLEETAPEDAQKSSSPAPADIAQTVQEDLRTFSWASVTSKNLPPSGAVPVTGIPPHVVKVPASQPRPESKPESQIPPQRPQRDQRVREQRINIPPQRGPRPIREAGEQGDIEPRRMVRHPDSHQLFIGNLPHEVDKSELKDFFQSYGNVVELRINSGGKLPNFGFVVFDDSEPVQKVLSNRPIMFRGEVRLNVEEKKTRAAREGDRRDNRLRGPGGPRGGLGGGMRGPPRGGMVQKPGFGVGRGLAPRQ"}
{"Sequence": "UUCCCUGAAGAUGAGAUCCCAGAGAAGGCCUGCAGGCGCCUGCUUGAAGGGAGGCGGCAGAAGAAGACGAAGAAGCAGAAGCGUCUGCUC", "log2 enrichment": -0.774}
{"Sequence": "AGUCCUGUGCUACACAUCGUAUGUACCGAAUCGGGAAAAAGGGAAAAAGGAAAAAGGGAAAGUAUUAUGUUACGCCGUUCGGAUCUGCAC", "log2 enrichment": -0.598}
{"Sequence": "CCUGUGCUACACAUCGUAUGUACCGAAUCGGGGUUUUUUGGGGUUUUUUGGGGUUUUUUGGAAAGUAUUAUGUUACGCCGUUCGGAUCUG", "log2 enrichment": 1.32}
{"Sequence": "GUCCUGUGCUACACAUCGUAUGUACCGAAUCGGGGAAAAAGGGGUGGGGUUUUUGGGGAAAGUAUUAUGUUACGCCGUUCGGAUCUGCAC", "log2 enrichment": -0.055}
{"Sequence": "UAACUUUAGAGGAGGAUCUGAUGGCUAUGGCAGUGGACGUGGAUUUGGGGAUGGCUAUAAUGGGUAUGGAGGAGGACCUGGAGGUGGCAA", "log2 enrichment": -0.207}
{"Sequence": "CUGUGCUACACAUCGUAUGUACCGAAUCGGGCCCCCCGGGGCCCCCCGGGGCCCCCCGGGGAAAGUAUUAUGUUACGCCGUUCGGAUCUG", "log2 enrichment": -2.15}
{"Sequence": "AGUCCUGUGCUACACAUCGUAUGUACCGAAUCGGGCCCCCGGCCCCCGGCCCCCGGGAAAGUAUUAUGUUACGCCGUUCGGAUCUGCACU", "log2 enrichment": -0.443}
{"Sequence": "AGUCCUGUGCUACACAUCGUAUGUACCGAAUCGGGAAAAGGGGAAAAGGGAAAAGGGGAAAGUAUUAUGUUACGCCGUUCGGAUCUGCAC", "log2 enrichment": 0.282}
{"data": "Sample 3", "target": "Casein kinase II subunit alpha' (CSNK2A2, Homo sapiens, UniProt P19784)", "effect on": "enzyme activity", "mode": "inhibitor", "tested at": "0.5 µM", "reference": "control", "UniProt P19784, sequence (whole entry, looked up)": "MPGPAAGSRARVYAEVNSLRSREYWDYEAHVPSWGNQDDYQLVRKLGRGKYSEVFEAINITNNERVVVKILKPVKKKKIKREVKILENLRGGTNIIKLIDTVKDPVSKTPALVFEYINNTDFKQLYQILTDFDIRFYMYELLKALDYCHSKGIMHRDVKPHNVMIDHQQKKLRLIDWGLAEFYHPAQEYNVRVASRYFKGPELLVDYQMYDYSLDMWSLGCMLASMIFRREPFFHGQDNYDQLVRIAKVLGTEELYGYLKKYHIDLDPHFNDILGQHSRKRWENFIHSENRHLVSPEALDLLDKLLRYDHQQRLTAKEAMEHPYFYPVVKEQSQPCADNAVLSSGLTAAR"}
{"SMILES": "c1cc(-c2cnn3cc(-c4ccc(OCCN5CCCCC5)cc4)cnc23)ccn1", "remaining activity": "34.6%"}
{"SMILES": "CCCCc1c(-c2ccc(OC)cc2)[nH]c2nccnc12", "remaining activity": "94.1%"}
{"SMILES": "N#C/C(=C(/N)SC1C=CC=CC1)c1cccc(C(O)c2ccncc2)c1 (stereo not shown)", "remaining activity": "110%"}
{"SMILES": "O=c1cc(N2CCOCC2)oc2c(-c3ccccc3)cccc12", "remaining activity": "93.9%"}
{"SMILES": "O=C(c1ccccc1)c1ccc(N2CCOCC2)cc1O", "remaining activity": "96.8%"}
{"SMILES": "C[C@@H](N)[C@H]1CC[C@H](C(=O)Nc2ccncc2)CC1", "remaining activity": "88%"}
{"data": "Sample 4", "target": "Interferon regulatory factor 3, full length, phosphomimetic (IRF3, Homo sapiens, UniProt Q14653, residues 1-427, S386D/S396D/S398D/S402D/T404D/S405D)", "technique": "protein-binding microarray", "form": "double-stranded DNA, one strand shown", "matrix": "in vitro", "tested at": "2540 nM top", "notes": "60-bp whole probe", "added": "salmon DNA 0.4 mg/ml", "reference": "random background probes", "direction": "higher = stronger binding", "constant ends, left off below": "GCCTAGCAC … GTCTTGATTCGCTTGACGCTGCTG", "Construct (chain)": "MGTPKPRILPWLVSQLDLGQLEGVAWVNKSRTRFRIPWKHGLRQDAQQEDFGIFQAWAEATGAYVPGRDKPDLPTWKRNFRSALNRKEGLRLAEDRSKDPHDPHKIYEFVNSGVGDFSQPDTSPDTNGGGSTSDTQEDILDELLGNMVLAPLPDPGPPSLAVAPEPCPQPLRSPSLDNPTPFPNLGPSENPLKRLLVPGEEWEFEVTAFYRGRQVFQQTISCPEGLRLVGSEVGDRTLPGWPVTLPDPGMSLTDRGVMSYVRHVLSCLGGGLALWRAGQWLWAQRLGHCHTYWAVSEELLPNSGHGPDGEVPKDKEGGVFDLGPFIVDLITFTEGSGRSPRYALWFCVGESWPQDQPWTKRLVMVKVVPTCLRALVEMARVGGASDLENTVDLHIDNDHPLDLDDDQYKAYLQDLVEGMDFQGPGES"}
{"Sequence": "TTGGGTTTCGGGACTGGGTTAGTGCTA", "fitted relative affinity [z-score]": 2.96}
{"Sequence": "GACGGTATCCTTATCATGACGTGCTAG", "fitted relative affinity [z-score]": 4.87}
{"Sequence": "TTAGGTTCCGACTTTCGGTTAGTGCTA", "fitted relative affinity [z-score]": 4.11}
{"Sequence": "CTGGAATCAATTTATTGACCGTGCTAG", "fitted relative affinity [z-score]": -0.00614}
{"Sequence": "TTAGGTTTCGTTATCCTTTAGTGCTAG", "fitted relative affinity [z-score]": 6.64}
{"Sequence": "TAAGGTCTCGGTCTCGGTTAGTGCTAG", "fitted relative affinity [z-score]": 0.975}
{"Sequence": "TCAGATTTCAGACTGGATTAGTGCTAG", "fitted relative affinity [z-score]": 1.15}
{"Sequence": "TTAGGTCTCCTACCGCTTTAGTGCTAG", "fitted relative affinity [z-score]": 0.343}
{"note": "A few entries again (sample 1):"}
{"target": "SIK1 (Homo sapiens, UniProt P57059)", "technique": "competition binding", "remaining binding [%]": 94}
{"target": "FLT3 (Homo sapiens, UniProt P36888, ITD)", "effect on": "cell-free assay", "technique": "competition with immobilised ligand", "remaining binding [%]": 86}
{"target": "IKBKE (Homo sapiens, UniProt Q14164)", "mode": "binder", "technique": "KINOMEscan competition binding", "reference": "DMSO", "remaining binding [%]": 13}
